Measurements from different studies.
Several values in a cell are separate wells, animals, samples, runs or records. ± gives the spread as reported.
PSMB6: Proteasome subunit beta type-6 (PSMB6, Homo sapiens, UniProt P28072)
Chain of UniProt P28072 (whole entry, looked up): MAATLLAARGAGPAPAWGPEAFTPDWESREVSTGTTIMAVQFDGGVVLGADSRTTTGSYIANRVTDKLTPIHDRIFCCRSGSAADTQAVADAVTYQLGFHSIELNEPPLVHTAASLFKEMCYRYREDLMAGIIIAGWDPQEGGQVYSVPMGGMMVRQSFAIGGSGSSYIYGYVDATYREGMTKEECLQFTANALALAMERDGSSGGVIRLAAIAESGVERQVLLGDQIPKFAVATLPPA
PIK3CB: Phosphatidylinositol 4,5-bisphosphate 3-kinase catalytic subunit beta isoform (PIK3CB, Homo sapiens, UniProt P42338)
Chain of UniProt P42338 (whole entry, looked up): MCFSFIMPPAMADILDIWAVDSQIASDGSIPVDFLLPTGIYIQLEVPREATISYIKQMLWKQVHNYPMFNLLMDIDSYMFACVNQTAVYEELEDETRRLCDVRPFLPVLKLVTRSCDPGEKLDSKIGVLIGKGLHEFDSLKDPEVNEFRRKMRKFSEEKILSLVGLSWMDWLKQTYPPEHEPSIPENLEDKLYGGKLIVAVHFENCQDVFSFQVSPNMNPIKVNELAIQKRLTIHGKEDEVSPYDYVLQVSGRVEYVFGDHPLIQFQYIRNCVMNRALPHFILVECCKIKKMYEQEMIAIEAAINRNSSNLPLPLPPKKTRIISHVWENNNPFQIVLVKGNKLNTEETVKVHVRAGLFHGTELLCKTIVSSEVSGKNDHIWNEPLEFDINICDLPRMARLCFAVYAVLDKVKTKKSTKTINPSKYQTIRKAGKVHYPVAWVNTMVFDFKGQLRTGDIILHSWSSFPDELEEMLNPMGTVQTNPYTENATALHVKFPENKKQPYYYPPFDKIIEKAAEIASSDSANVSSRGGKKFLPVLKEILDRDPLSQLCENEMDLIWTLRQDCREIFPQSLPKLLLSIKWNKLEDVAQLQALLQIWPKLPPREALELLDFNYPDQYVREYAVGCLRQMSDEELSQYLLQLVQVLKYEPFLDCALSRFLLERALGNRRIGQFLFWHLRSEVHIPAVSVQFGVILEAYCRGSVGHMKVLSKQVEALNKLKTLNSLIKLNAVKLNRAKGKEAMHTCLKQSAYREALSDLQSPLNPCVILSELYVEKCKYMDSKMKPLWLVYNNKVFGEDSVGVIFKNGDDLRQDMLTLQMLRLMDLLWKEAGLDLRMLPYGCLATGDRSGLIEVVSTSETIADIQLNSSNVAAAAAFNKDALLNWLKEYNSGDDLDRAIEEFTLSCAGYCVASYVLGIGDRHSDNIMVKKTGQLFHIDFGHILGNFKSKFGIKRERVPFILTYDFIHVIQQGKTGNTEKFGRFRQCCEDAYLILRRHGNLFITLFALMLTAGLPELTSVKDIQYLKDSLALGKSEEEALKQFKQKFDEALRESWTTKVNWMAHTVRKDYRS
HDAC3: Histone deacetylase 3 (HDAC3, Homo sapiens, UniProt O15379)
Chain of UniProt O15379 (whole entry, looked up): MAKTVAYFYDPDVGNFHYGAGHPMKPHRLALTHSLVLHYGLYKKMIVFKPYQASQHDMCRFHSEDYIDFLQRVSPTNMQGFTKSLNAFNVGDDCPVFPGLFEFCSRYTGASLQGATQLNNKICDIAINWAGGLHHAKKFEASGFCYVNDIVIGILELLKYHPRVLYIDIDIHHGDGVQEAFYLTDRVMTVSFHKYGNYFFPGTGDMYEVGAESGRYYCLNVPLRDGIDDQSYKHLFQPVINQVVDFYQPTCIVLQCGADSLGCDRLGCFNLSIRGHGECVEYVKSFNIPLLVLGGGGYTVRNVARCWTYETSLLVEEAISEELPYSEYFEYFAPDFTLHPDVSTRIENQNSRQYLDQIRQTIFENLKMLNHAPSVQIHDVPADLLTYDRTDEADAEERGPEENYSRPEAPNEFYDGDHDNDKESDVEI
CDK2 with cyclin A: Cyclin-dependent kinase 2, with cyclin A (CDK2, Homo sapiens, UniProt P24941)
HDAC8: Histone deacetylase 8 (HDAC8, Homo sapiens, UniProt Q9BY41)
Chain of UniProt P35346 (whole entry, unmodified, looked up): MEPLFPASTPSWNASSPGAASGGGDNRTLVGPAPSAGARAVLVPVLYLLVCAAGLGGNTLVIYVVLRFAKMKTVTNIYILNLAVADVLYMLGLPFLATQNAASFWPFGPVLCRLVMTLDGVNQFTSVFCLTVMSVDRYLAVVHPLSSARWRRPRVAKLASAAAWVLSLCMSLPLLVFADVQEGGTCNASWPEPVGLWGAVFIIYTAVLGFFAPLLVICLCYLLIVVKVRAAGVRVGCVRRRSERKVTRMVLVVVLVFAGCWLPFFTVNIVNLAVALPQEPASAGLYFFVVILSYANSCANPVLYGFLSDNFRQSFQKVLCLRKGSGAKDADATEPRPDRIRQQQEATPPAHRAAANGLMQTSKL
Chain of UniProt Q9BY41 (whole entry, looked up): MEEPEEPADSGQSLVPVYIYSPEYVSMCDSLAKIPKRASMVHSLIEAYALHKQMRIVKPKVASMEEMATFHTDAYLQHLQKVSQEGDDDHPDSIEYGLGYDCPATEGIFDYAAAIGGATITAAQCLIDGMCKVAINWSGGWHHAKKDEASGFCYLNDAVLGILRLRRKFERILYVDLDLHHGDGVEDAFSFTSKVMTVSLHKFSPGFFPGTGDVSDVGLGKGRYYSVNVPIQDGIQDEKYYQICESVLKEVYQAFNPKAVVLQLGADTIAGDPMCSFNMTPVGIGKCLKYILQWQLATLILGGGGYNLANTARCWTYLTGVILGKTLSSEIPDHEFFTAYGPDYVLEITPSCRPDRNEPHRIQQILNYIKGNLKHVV
Chain of UniProt P29597 (whole entry, looked up): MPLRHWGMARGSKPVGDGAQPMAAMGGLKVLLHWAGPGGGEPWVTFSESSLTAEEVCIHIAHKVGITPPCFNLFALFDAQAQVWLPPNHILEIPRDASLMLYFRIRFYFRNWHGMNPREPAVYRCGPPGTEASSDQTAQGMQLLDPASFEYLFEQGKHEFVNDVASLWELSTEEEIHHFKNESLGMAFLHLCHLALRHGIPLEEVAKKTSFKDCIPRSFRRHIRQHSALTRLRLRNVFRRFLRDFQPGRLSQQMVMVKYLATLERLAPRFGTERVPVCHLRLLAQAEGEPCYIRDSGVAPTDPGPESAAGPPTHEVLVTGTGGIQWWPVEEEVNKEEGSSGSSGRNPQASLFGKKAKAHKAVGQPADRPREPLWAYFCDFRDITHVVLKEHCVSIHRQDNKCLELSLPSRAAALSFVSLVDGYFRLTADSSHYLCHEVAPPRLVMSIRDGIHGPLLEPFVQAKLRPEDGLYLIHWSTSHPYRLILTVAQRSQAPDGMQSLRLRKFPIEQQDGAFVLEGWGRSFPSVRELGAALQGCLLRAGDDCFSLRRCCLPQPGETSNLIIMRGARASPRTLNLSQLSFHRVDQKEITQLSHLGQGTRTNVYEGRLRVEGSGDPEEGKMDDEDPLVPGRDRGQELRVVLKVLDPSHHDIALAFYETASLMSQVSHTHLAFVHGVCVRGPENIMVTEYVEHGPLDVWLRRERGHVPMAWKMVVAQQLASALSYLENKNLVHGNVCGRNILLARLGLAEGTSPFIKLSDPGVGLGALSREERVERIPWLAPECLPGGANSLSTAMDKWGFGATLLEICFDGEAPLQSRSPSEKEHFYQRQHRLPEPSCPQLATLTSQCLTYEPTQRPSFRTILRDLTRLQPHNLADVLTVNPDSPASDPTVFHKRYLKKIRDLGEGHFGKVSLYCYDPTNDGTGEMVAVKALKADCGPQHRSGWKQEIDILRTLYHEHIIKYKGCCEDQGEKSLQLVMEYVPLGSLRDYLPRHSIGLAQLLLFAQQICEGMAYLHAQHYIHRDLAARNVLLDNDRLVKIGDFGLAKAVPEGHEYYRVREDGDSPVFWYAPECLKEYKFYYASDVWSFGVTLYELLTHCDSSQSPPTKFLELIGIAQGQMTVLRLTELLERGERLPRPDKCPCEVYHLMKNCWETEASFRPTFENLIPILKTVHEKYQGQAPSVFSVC
Chain of UniProt Q86XQ3 (whole entry, looked up): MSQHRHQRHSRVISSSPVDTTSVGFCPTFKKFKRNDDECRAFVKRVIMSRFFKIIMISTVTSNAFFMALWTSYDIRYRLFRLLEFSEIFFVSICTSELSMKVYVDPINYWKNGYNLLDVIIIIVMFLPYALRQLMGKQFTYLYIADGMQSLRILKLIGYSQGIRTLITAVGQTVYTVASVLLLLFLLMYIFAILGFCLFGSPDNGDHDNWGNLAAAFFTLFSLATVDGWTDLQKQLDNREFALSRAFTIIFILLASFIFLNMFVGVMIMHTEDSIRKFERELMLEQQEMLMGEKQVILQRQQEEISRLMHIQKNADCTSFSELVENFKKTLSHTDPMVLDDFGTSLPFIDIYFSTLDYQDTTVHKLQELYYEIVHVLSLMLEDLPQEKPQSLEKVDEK
Chain of UniProt Q16288 (whole entry, looked up): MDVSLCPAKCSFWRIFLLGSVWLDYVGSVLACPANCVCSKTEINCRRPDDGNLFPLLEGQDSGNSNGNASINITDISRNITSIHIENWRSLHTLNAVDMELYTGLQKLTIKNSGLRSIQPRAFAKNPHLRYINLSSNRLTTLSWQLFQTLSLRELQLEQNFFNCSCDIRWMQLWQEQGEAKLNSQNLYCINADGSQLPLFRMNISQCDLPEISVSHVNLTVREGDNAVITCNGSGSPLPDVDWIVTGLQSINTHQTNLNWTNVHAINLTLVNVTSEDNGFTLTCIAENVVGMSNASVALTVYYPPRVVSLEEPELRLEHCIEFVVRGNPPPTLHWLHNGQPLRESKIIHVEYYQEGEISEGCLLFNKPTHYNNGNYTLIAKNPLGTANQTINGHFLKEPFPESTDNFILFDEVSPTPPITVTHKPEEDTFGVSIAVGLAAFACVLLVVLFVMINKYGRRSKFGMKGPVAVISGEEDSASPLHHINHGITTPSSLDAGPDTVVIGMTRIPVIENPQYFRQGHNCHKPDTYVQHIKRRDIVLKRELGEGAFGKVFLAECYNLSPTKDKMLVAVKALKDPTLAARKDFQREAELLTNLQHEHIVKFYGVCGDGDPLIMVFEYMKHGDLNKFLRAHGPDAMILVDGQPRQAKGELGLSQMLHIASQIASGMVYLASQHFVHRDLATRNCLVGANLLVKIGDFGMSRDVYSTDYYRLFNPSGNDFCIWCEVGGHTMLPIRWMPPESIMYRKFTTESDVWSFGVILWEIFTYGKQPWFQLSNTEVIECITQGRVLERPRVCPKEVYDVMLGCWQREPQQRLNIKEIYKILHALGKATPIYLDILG

CCn1nc(Cl)c2c1-c1cnc(N)c(c1)O[C@H](C)c1cc(F)ccc1-c1nn(C)cc1C2  IC50 (NT-3 growth factor receptor (NTRK3, Homo sapiens, UniProt Q16288); enzyme activity, inhibitor; together with: 1 mM ATP): 0.096 µM
CCCOC(=O)N1c2cc(CNC)ccc2[C@H](NC(=O)C(=O)Nc2ccc(Cl)c(F)c2)[C@H]1CNC(=N)N  IC50 (env (Human immunodeficiency virus 1, UniProt Q75760); HIV-1 infection; Cf2Th-CD4/CCR5 cells; 48 h): 1.38 µM
CC(C)c1ccccc1[C@@H]1CCCN1C1CC2(CCN(c3ccc(C(=O)NS(=O)(=O)c4ccc(NC[C@H]5CC[C@](C)(O)CC5)c([N+](=O)[O-])c4)c(Oc4cnc5[nH]ccc5c4)c3)CC2)C1  IC50 (Bcl-2-like protein 2 (BCL2L2, Homo sapiens, UniProt Q92843); binding, TR-FRET competition): 1.8 ± 0.083 µM
CC(C)C[C@H](NC(=O)[C@H](Cc1ccc(CN)cc1)NC(=O)[C@H](Cc1ccccc1)N=[N+]=[N-])C(=O)N[C@@H](CC1CCCC2CCCCC21)C(=O)[C@@]1(C)CO1 (stereo partly drawn)  IC50 (PSMB6; competitive ABPP; Raji cell lysate): > 10 µM
O=C(/C=C/c1ccccc1)Oc1ccc2c(c1)O/C(=C\C=C\c1ccccc1)C2=O  IC50 (Phosphatidylinositol 3-kinase catalytic subunit type 3 (PIK3C3, Homo sapiens, UniProt Q8NEB9); enzyme activity, inhibitor, ADP detection): 0.00758 µM
O=C1Nc2c(Br)cccc2/C1=C1/Nc2ccccc2C1=NO  IC50 (Serine/threonine-protein kinase N2 (PKN2, Homo sapiens, UniProt Q16513)): > 10 µM
CN(C)c1ccc(CCC(=O)N2C(=O)C3(NC(c4ccc(F)cc4)C4(C(=O)Nc5ccccc54)N3Cc3ccc(F)cc3)c3ccccc32)cc1 (stereo not drawn)  IC50 (PIK3CB; enzyme activity, inhibitor, ADP detection): 0.291 µM
Cc1c(COc2cc(OCc3cccc(C#N)c3)c(CNC(CO)CO)cc2Cl)cccc1-c1cccc(OCCCCCCC(=O)NO)c1  IC50 (HDAC3; enzyme activity, inhibitor): 0.0697 µM
Nc1ncc2c(n1)-c1c([nH]c3ccc(C4=CCOCC4)cc13)CCC2  IC50 (Non-receptor tyrosine-protein kinase TYK2, JH2 (TYK2, Homo sapiens, UniProt P29597); target engagement in cells, BRET): > 10 µM
C[C@@H](O)[C@@H]1NC(=O)[C@H](CCCCN)NC(=O)[C@@H](Cc2c[nH]c3ccccc23)NC(=O)[C@H](Cc2ccc(NC(N)=O)cc2)NC(=O)[C@H](NC(=O)[C@H](Cc2ccccc2)NC(N)=O)CSSC[C@@H](C(=O)N[C@@H](Cc2ccc3ccccc3c2)C(N)=O)NC1=O  IC50 (Somatostatin receptor type 5 (SSTR5, Homo sapiens, UniProt P35346); radioligand binding, inhibitor, competitive radioligand displacement; cloned receptor): 0.502 µM and 0.17 µM
CCC(=O)N(CCC(c1ccccc1)c1ccco1)Cc1ccc(OC)c(OC)c1 (stereo not drawn)  IC50 (UGT74F1 (Arabidopsis thaliana, UniProt O22820); enzyme activity, inhibitor): 155 µM
O=C(Nc1cc(-c2c(F)cccc2F)[nH]n1)C1CCC1  IC50 (CDK2 with cyclin A; radiometric; together with: 1 µM ATP): 1.9 µM
Cc1ccc(CN2C(=O)C3(c4ccccc42)C(c2ccc(F)cc2)NC2(C(=O)N(C(=O)CCc4ccccc4)c4ccccc42)N3Cc2ccc(F)cc2)cc1 (stereo not drawn)  IC50 (PIK3CB; enzyme activity, inhibitor, ADP detection): 0.0493 µM
C=CC(=O)Nc1ccc(F)c(-c2ncnc3[nH]cc(C(=O)OCC)c23)c1  IC50 (Non-receptor tyrosine-protein kinase TYK2 (TYK2, Homo sapiens, UniProt P29597); kinase activity; together with: ATP 100 µM): > 10 µM
NC(=O)c1cccc(-c2cnn3ccc(Nc4ccc(N5CCOCC5)cc4)nc23)c1  IC50 (CDK2 with cyclin A; radiometric; together with: 1 µM ATP): 0.43 µM
Cc1cc(NC2CCN(C)CC2)ccc1-c1cc2c(N3CCC[C@H](C(=O)NCc4ccc(OC(F)(F)F)cc4)C3)ncnc2[nH]1  IC50 (Inhibitor of nuclear factor kappa-B kinase subunit beta (IKBKB, Homo sapiens, UniProt O14920); enzyme activity, inhibitor, mobility shift): 2.57 µM
Cc1c(COc2cc(OCc3cccc(C#N)c3)c(CNC(C)(CO)CO)cc2Cl)cccc1-c1cccc(OCCCCCC(=O)NO)c1  IC50 (HDAC3; enzyme activity, inhibitor): 0.0781 µM
C[C@H](CCC(=O)O)[C@H]1CC[C@H]2[C@@H]3CC[C@@H]4C[C@H](O)CC[C@]4(C)[C@H]3CC[C@]12C  IC50 (Hepatic sodium/bile acid cotransporter (SLC10A1, Homo sapiens, UniProt Q14973)): 34.1 µM
CCOC(=O)C[C@@H](C#N)NC(=O)[C@@H]1CCCN1C(=O)[C@@H](NC(=O)c1ccc(N)c(Cl)c1)C(C)(C)C  IC50 (Caspase-8 (CASP8, Homo sapiens, UniProt Q14790); enzyme activity, inhibitor): 9.67 µM
O=C(NO)c1cncc(OS(=O)(=O)Oc2ccccc2-c2ccccc2)c1  IC50 (HDAC8; enzyme activity, inhibitor, fluorescence): 1.71 µM
Cc1nn(-c2cccc(N)c2)c(=O)c2cnc(Nc3ccc(N4CCNCC4)cc3)nc12  IC50 (Mitogen-activated protein kinase 11 (MAPK11, Homo sapiens, UniProt Q15759); enzyme activity, inhibitor): > 10 µM
O=C(NO)c1cncc(OS(=O)(=O)Oc2ccc(Oc3ccccc3)cc2)c1  IC50 (HDAC8; enzyme activity, inhibitor, fluorescence): 1.88 µM
CC[C@H](C)[C@@H]1NC(=O)[C@H](Cc2ccccc2C(F)(F)F)NC(=O)CCSCc2cccc(n2)CSCCCNC(=O)[C@H](CCCCCC(=O)NO)NC1=O  IC50 (HDAC3; enzyme activity, inhibitor, fluorescence): 0.018 µM
CC(C)C[C@H](NC(=O)[C@H](Cc1ccc(CN)cc1)NC(=O)[C@H](Cc1ccccc1)N=[N+]=[N-])C(=O)N[C@@H](CC1CCC(C2CCCCC2)CC1)C(=O)[C@@]1(C)CO1 (stereo partly drawn)  IC50 (PSMB6; competitive ABPP; Raji cell lysate): > 10 µM
O=C1Nc2ccccc2/C1=N/c1ccc(Cl)cc1Br  IC50 (PIK3CB; enzyme activity, inhibitor, ADP detection): 0.0717 µM
COc1ccccc1/C=C1\C(=O)Nc2ccc(Nc3nc(C)nc4ccccc34)cc21  IC50 (PIK3CB; enzyme activity, inhibitor, ADP detection): 0.176 µM
CC1Cc2ccccc2N1C1=C(c2ccc(F)cc2)C(=O)NC1=O (stereo not drawn)  IC50 (Glycogen synthase kinase-3 beta (GSK3B, Homo sapiens, UniProt P49841); enzyme activity, inhibitor): 31.8 µM
CCCCn1c(NN)nc2ccc(C)cc2c1=O  IC50 (Genome polyprotein, protease (Hepatitis C virus genotype 1b, UniProt O92972); enzyme activity, inhibitor, FRET): 23.4 µM
C=CC(=O)N1C[C@H](C)N(c2nc(OC[C@@]34CCCN3C[C@H](F)C4)nc3c(F)c(-c4ccc(F)c5sc(N)c(C#N)c45)c(C(F)(F)F)cc23)C[C@H]1C  IC50 (GTPase KRas, GppNHp; with RAF1 RBD (KRAS, Homo sapiens, UniProt P01116, Q61R)): 18.4 ± 2.9 µM
Fc1ccc(Nc2nc(NC3CCCCC3)c3cc(Br)ccc3n2)cc1F  IC50 (Beta-2 adrenergic receptor (ADRB2, Homo sapiens, UniProt P07550, T164V); β-arrestin2 recruitment, antagonist, BRET; HEK293; mutant T164V, together with: isoprenaline 1 µM): 0.2 µM
COc1cc(-n2cc3cc(F)cc(C(N)=O)c3n2)cc(Cl)c1C1CC(O)(CCO)Cc2ccccc21 (stereo not drawn)  IC50 (Poly [ADP-ribose] polymerase 1 (PARP1, Homo sapiens, UniProt P09874); enzyme activity, inhibitor, radiometric): 7e-05 µM
COCCN(C)C(C)C(=O)NC(Cc1ccc(-c2ccccc2)cc1)B(O)O (stereo not drawn)  IC50 (Proteasome subunit beta type-10 / Proteasome subunit beta type-3 (Homo sapiens, UniProt P40306+P49720); β2i activity, inhibitor; immunoproteasome, together with: Ac-KQL-AMC): > 10 µM
NCCCC[C@@H]1NC(=O)CNC(=O)[C@H](N)CSSC[C@H](C(N)=O)NC(=O)[C@@H](CO)NC(=O)[C@@H](CC(=O)O)NC(=O)[C@H](CC(=O)O)NC(=O)CNC1=O  IC50 (Integrin alpha-V/beta-3 (Homo sapiens, UniProt P05106+P06756); ligand displacement, flow cytometry): > 20 µM
Cc1cc2nc3c(nc2cc1C)-c1ccc2[n]1[Au-]14[n]5c(ccc5-3)C=[N+]1CCC[N+]4=C2.F[P-](F)(F)(F)(F)F  IC50 (DNA topoisomerase 1 (TOP1, Homo sapiens, UniProt P11387); enzyme activity, inhibitor): 13 µM
Cc1nc(Nc2ccc3c(c2)/C(=C/c2cn(C)c4ccccc24)C(=O)N3C)c2ccccc2n1  IC50 (PIK3CB; enzyme activity, inhibitor, ADP detection): 0.0969 µM
O=C(Cc1ccc(OCc2ccccc2)cc1)NC1(C(=O)O)CCN(C(=O)c2ccc(-c3cccc(Cl)c3)cc2)CC1  IC50 (Cannabinoid receptor 1 (CNR1, Homo sapiens, UniProt P21554); antagonist, GloSensor cAMP): > 10 µM
CN(C)c1nc(N)c(C(=O)NC(=N)N)nc1Cl  IC50 (CatSper channel complex (Homo sapiens, UniProt Q7RTX7+Q86XQ3+Q8NEC5+Q96P56); calcium influx, inhibitor, FLIPR; human sperm; together with: high pH, high potassium): 59 µM
CCCC(=O)OC1CCC2(C)C(CCC3(C)C2CC=C2C4C(C)C(C)CCC4(C(=O)O)CCC23C)C1(C)C (stereo not drawn)  IC50 (UDP-glucuronosyltransferase 1A8 (UGT1A8, Homo sapiens, UniProt Q9HAW9); enzyme activity, inhibitor): > 100 µM
CCN(CC)CC(=O)Nc1cccc(-n2cc(-c3ccc4ccc(-c5cn(-c6cccc(NC(=O)CN(CC)CC)c6)nn5)cc4c3)nn2)c1  IC50 (PIK3CB; enzyme activity, inhibitor): > 10 µM
O=C1NCCC12CCN(c1c(Cl)cncc1-c1ccc(N3CCOCC3)cc1)CC2  IC50 (Cyclin-dependent kinase 8, with cyclin C (CDK8, Homo sapiens, UniProt P49336)): 0.02 µM
O=C1/C(=N\c2ccc(Cl)cc2Br)c2ccccc2N1Cc1cccc(Cl)c1 (mixture of isomers)  IC50 (PIK3CB; enzyme activity, inhibitor, ADP detection): 0.159 µM
CCOc1cc(CN2CC3(CC(N4CCC(C(=O)O)CC4)=NO3)C2)cc(OCC)c1-c1ccc(F)cc1  IC50 (Somatostatin receptor type 5 (SSTR5, Homo sapiens, UniProt P35346, W261A); cAMP level, antagonist, GloSensor; AD293; W261A mutant, bandwidth 6.48, together with: CST17 EC80 and forskolin): 2.69 µM
